Experimental data of several laboratories.
Each numbered part is a random draw from the data of one study; scales do not carry over between parts. Substitutions count along the parent as printed.

Set 1
Target: HLA class I histocompatibility antigen, A alpha chain, allele A*25:01 (Homo sapiens, UniProt P04439)
Effect on: peptide-MHC binding
Molecule type: peptide
Tested at: concentration not given
`TTYVYTLPV` — result for binding: “inactive”.
Under binding, `GQFLSFASL` is recorded as “inactive”.
Under binding, `AVGVVCTGL` is recorded as “inactive”.
`RPPYSSYGY`: binding “inactive”.
For `KSFSAGMFH`, binding read “inactive”.
`FTGEYLLRL` — result for binding: “inactive”.
For `VYWENEVSI`, binding read “inactive”.
Under binding, `NRDVSFQDL` is recorded as “inactive”.
`EIPDVLNSL`: binding “active”.
`VFTSRIQVI`: binding “inactive”.
`EYAPFARLL` — result for binding: “inactive”.

Set 2
Target: CCND3, cyclin fold, Cln2 fusion (human)
Method: yeast growth competition, sequencing
Sample: yeast
Notes: weak parent motif
Relative to: not given
Direction: higher = stronger binding
Starting sequence: viral docking peptide; KGVKRKLFAEDSS; partner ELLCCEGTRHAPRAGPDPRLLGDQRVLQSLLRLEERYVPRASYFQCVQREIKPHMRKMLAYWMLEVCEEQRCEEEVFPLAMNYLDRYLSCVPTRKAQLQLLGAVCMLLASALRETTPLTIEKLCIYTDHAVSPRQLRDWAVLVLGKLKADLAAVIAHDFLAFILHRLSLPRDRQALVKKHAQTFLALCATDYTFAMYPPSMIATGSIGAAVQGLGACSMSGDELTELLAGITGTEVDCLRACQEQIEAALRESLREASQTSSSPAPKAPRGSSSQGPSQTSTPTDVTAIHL
Under “normalised enrichment score”, `R5S` is recorded as -0.273.
Under “normalised enrichment score”, `K4Q` is recorded as -0.0154.
Under “normalised enrichment score”, `S12A` is recorded as 0.276.
For `A9T`, “normalised enrichment score” read 0.0099.
`S12N` — result for “normalised enrichment score”: 0.122.
Under “normalised enrichment score”, `S12C` is recorded as 0.265.
For `G2H`, “normalised enrichment score” read 0.357.
`F8Y`: “normalised enrichment score” 0.17.
For `K6H`, “normalised enrichment score” read 0.155.
`S12T`: “normalised enrichment score” -0.0392.
`D11P`: “normalised enrichment score” 0.00325.
Under “normalised enrichment score”, `V3K` is recorded as -0.0709.
`R5V`: “normalised enrichment score” 0.413.
`S12Q`: “normalised enrichment score” -0.505.
`L7E` — result for “normalised enrichment score”: 0.595.
`R5K`: “normalised enrichment score” 0.516.
Under “normalised enrichment score”, `G2F` is recorded as 0.906.
Under “normalised enrichment score”, `F8S` is recorded as -0.0375.
For `E10A`, “normalised enrichment score” read 0.185.
For `A9R`, “normalised enrichment score” read 0.567.
`K4I` — result for “normalised enrichment score”: 0.429.
`S12R`: “normalised enrichment score” 0.486.
`E10V`: “normalised enrichment score” 0.171.
Under “normalised enrichment score”, `K4D` is recorded as 0.116.
`E10K`: “normalised enrichment score” -0.053.

Set 3
Target: RING finger protein unkempt homolog, zinc fingers 1-6, GST-SBP tag (UNK, Homo sapiens, UniProt Q9C0B0, residues 30-357)
Chain of UniProt Q9C0B0 (30-357, looked up): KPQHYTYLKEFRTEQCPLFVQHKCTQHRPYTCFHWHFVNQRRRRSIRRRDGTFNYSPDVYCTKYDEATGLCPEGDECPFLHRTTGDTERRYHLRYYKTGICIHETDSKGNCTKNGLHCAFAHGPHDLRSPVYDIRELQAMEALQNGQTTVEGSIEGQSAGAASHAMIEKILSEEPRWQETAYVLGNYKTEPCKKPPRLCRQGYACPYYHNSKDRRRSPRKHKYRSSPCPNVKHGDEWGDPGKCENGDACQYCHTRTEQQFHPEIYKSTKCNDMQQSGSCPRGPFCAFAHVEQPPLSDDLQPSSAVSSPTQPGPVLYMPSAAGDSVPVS
Method: RNA Bind-n-Seq
Molecule type: RNA
Sample: in vitro
Tested at: not given
Notes: RNA with constant flanks, human-mouse chimeric sites, ends assumed
Relative to: input RNA pool
Direction: higher = stronger binding
Shared flanks, not repeated: GGGAGUUCUACAGUCCGACGAUC … CAACAGAGGAUUGAGCAUCA
For `AGAGAUAAGACAUCCAGGAACAUGCGAGGCUCCCGGAUGAAUGGGUUUCCAAGUCCCACUCACAGCGCCCACUGUAGCUUCUACCGAACCAGAACCUUGCAGGCACUAAGUAAUGAGAAG`, the bound/input enrichment was 0.127 ratio.
`GUAAUGGACGUCAACACUGCUCUACAAGAGGUUCUGAAGACCGCCCUCAUCCACGAUGGCCUAGCACGUGGAAUUCGCGAAGCUGCCAAAGCCUUAGACAAGCGCCAAGCCCAUCUGUGU` gave a bound/input enrichment of 0.647 ratio.
`UUAAUCCCCUUUACUGCUCCCCCACUUCUCAUGGUAAUGACAAAAACUUAUAUUCCCGUCCUAGCUUUCACUCAGAUGGCUUAUGGAGCCGGUUUCCUAGCUUUCUUGGGAGGGAUCAGA` gave a bound/input enrichment of 0.346 ratio.
`GAUCAUGAACCACCAUCAGAAAUGAAGGAUGAGACUACCAAGACGAGCAAAACAGCUGCGCUACAGAAAAGUAAACUUAACCUUGCAGAGUUCCUUAAUGAAGAUACAAGUUAAGAGAGC` has a bound/input enrichment of 0.131 ratio.
For `UUUGUUUUUAUGCUAAGCACACGUGCUGGUGGUCUGGGCAUCAAUCUUGCAACUGCUGAUGUAGUCAUUUUAUAUGACUCAGAUUGGAAUCCGCAAGUAGAUCUUCAGGCUAUGGACCGU`, the bound/input enrichment was 0.145 ratio.
The bound/input enrichment of `GUCAACAGCUGCCUCAACCCCAUCCUCUACGCCUUCCUGGAUGAGAACUUCAAGGCCUGCUUUAGAAAGUUCUGCUGUGCAUCUGCCCUGCGCCGGGACGUGCAGGUGUCUGACCGCGUG` is reported as 0.375 ratio.
For `GUGACUGGUGUUAAGAUUUACCCUCAGCAAAGAAGUGCAGUAGUCACAAUAAUCCCUUCUGUGGUGAGUGCCAGUCAGAUUGUGGAGCUGGUCCCAGACCUCAGUUUAGACAUGGGAACU`, the bound/input enrichment was 0.273 ratio.
For `AGUUCCAAACCACCAUCAGAAAUGAAGAUGAGAUUACCCAGACGAGCCAAAACAGCUGCGCUACAGAAAAGUAAACUUAACCUUGCAGAGUUCCUUAAAUGAAGAUCAAGUUAAGAGAGC`, the bound/input enrichment was 0.383 ratio.

Set 4
Target: UBE2D2 UBC core domain (UniProt P62837)
Chain of UniProt P62837 (whole entry, looked up): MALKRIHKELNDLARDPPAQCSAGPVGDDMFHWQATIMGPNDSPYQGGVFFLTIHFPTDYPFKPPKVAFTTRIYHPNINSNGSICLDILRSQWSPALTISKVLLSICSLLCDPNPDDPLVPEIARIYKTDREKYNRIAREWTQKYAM
Method: yeast two-hybrid
Sample: yeast
Notes: mostly zero background
Relative to: not given
Direction: higher = stronger interaction
B1: TRIM31 RING domain (UniProt Q9BZY9); chain FVNKLQEEVICPICLDILQKPVTIDCGHNFCLKCITQIGETSCGFFKCPLCKTSVRKNAIRF
B2: TRIM54 RING domain (UniProt Q9BYV2); chain SMDNLEKQLICPICLEMFSKPVVILPCQHNLCRKCANDVFQASNPLWQSRGSTTVSSGGRFRCPSCRHEVVLDRHGV
B3: RNF187 RING domain (UniProt Q5TA31); chain ALPAGPAEAACALCQRAPREPVRADCGHRFCRACVVRFWAEEDGPFPCPECADDCWQRAVEP
B4: MEX3B RING domain (UniProt Q6ZN04); chain SGLRRKGSRDCSVCFESEVIAALVPCGHNLFCMECANRICEKSEPECPVCHTAVTQAIRIF
B5: RNF122 RING domain (UniProt Q9H9V4); chain AKKLQLYGQTCAVCLEDFKGKDELGVLPCQHAFHRKCLVKWLEVRCVCPMCNKPIASPSEAT
B6: RLIM RING domain (UniProt Q9NVW2); chain SFGENDALKTCSVCITEYTEGNKLRKLPCSHEYHVHCIDRWLSENSTCPICRRAVLASGNRE
B7: TRIM60 RING domain (UniProt Q495X7); chain ALVNLQEESSCPICLEYLKDPVTINCGHNFCRSCLSVSWKDLDDTFPCPVCRFCFPYKSFRR
`B1 (TRIM31 RING domain)` — result for “lacZ reporter activity”: 0.
For `RYRQMEERITCPICIDSHIRLVFQCGHGACAPCGSALSACPICRQPIRDRIQIF (MIB2 RING domain (UniProt Q96AX9))`, “lacZ reporter activity” read 0.
`B2 (TRIM54 RING domain)`: “lacZ reporter activity” 0.
Under “lacZ reporter activity”, `B3 (RNF187 RING domain)` is recorded as 0.
`QVQSRTKIEECVVCSDKKAAVLFQPCGHMCACENCANLMKKCVQCRAVVERRVPFI (MIB1 RING domain (UniProt Q86YT6))`: “lacZ reporter activity” 0.
For `B4 (MEX3B RING domain)`, “lacZ reporter activity” read 0.
Under “lacZ reporter activity”, `B5 (RNF122 RING domain)` is recorded as 0.
For `YPEEVDDDLICHICLQALLDPLDTPCGHTYCTLCLTNFLVEKDFCPMDRKPLVLQHCKK (LNX1 RING domain (UniProt Q8TBB1))`, “lacZ reporter activity” read 0.
For `B6 (RLIM RING domain)`, “lacZ reporter activity” read 0.
Under “lacZ reporter activity”, `B7 (TRIM60 RING domain)` is recorded as 0.
